# Assay results collected from several papers.
# Numbered parts are unrelated; each lists some results of a single study. Several values in a cell are separate wells, animals, samples, runs or records.
# Chain of UniProt Q9NR20 (whole entry, looked up): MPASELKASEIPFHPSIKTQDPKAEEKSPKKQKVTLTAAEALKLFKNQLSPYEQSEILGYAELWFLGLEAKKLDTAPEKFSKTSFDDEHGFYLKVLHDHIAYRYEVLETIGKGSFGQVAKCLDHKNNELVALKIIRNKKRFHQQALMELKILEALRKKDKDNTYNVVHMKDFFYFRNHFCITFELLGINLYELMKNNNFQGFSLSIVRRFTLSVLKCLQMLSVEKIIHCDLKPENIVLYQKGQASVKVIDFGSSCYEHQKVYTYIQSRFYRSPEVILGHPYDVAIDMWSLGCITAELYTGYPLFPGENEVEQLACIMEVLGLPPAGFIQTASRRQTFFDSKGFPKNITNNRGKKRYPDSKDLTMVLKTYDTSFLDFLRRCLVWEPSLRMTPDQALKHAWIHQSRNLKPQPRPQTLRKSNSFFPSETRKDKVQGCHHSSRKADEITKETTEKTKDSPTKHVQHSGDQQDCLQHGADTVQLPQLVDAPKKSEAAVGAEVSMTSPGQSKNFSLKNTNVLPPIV
# Chain of UniProt P80192 (whole entry, looked up): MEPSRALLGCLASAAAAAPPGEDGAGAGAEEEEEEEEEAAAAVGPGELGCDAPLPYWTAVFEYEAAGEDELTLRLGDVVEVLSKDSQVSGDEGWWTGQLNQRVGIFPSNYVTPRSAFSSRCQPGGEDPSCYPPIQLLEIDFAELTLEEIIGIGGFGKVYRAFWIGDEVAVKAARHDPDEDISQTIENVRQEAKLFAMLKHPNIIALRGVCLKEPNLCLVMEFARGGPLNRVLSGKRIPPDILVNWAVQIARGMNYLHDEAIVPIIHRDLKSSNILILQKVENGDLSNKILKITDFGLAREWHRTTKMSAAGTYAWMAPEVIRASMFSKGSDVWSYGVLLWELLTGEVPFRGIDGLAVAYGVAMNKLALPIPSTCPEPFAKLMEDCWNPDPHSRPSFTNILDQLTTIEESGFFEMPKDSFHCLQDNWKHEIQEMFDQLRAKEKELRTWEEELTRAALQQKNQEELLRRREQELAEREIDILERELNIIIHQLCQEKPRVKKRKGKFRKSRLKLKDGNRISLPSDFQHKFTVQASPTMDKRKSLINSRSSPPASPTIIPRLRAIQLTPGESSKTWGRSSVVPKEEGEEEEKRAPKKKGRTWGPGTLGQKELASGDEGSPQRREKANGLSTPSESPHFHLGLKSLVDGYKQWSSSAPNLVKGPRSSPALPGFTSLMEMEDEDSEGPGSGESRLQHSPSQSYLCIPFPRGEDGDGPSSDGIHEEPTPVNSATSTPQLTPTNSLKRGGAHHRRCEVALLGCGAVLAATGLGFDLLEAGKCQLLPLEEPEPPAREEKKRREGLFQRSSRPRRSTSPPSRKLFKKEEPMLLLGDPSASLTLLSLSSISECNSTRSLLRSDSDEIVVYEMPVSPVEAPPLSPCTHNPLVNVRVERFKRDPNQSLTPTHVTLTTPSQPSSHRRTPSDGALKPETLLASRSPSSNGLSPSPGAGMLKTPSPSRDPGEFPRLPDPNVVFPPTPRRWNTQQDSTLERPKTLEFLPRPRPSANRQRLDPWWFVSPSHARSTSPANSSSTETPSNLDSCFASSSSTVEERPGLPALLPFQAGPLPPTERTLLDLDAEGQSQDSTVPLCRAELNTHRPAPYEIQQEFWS
# Chain of UniProt Q06418 (whole entry, looked up): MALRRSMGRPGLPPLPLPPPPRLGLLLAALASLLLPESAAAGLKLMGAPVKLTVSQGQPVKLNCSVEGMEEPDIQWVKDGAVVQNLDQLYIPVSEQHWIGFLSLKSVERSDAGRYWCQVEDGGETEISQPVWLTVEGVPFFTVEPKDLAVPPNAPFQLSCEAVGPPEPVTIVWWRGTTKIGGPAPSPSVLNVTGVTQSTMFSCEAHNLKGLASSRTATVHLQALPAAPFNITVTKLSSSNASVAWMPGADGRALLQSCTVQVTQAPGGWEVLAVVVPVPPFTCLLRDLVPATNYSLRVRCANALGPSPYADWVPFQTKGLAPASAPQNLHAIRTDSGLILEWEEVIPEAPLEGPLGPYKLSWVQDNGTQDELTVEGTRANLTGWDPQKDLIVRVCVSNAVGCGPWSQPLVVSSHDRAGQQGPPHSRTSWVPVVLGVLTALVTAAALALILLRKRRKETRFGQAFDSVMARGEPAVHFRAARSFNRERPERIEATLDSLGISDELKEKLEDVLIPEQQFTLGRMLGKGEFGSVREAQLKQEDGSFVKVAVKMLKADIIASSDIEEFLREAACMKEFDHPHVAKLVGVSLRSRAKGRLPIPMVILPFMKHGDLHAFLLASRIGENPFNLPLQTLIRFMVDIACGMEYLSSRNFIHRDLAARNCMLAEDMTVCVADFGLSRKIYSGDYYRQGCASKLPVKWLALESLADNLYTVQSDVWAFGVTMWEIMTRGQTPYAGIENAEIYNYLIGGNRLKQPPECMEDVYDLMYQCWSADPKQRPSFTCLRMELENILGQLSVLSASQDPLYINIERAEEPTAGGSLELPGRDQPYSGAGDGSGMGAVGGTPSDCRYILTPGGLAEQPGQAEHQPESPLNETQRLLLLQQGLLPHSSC
# Chain of UniProt Q9UK32 (whole entry, looked up): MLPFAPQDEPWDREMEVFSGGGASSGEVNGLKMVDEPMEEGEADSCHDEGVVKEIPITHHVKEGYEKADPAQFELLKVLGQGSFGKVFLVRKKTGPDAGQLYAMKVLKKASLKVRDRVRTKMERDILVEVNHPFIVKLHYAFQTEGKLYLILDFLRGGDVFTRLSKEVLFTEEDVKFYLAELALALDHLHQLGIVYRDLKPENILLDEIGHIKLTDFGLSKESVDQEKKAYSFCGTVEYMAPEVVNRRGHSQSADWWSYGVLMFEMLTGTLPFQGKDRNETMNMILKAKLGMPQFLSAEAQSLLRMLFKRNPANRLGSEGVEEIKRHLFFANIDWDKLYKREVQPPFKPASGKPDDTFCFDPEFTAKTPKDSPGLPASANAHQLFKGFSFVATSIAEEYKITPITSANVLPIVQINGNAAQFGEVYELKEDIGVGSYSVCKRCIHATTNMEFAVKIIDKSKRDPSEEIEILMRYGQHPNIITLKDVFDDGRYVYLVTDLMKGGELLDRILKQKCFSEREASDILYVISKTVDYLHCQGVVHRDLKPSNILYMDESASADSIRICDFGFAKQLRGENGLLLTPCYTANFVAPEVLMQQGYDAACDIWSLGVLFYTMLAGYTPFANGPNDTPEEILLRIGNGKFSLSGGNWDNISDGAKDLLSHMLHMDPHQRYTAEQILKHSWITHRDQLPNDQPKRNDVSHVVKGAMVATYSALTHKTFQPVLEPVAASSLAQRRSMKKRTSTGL
# Chain of UniProt O00311 (whole entry, looked up): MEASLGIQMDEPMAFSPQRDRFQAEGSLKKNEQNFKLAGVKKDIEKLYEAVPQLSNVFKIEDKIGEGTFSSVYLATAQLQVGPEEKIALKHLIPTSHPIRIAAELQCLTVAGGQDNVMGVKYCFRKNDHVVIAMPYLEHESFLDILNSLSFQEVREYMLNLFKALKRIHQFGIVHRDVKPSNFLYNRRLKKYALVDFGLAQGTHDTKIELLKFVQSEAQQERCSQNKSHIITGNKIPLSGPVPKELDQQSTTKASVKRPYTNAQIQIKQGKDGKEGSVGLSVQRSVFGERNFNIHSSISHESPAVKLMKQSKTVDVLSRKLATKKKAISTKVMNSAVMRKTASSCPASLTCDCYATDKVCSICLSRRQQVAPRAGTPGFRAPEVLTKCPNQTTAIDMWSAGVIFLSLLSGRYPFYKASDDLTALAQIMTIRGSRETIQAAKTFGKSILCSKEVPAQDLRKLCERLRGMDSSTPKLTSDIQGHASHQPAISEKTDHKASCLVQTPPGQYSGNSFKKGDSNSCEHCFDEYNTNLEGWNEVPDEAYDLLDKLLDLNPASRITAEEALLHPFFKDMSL

# Study 1 — effect on: ligand displacement; technique: radioligand; tested at: 10 µM
# Target: 5-hydroxytryptamine receptor 1E (HTR1E, Homo sapiens, UniProt P28566)
# Chain of UniProt P28566 (whole entry, looked up): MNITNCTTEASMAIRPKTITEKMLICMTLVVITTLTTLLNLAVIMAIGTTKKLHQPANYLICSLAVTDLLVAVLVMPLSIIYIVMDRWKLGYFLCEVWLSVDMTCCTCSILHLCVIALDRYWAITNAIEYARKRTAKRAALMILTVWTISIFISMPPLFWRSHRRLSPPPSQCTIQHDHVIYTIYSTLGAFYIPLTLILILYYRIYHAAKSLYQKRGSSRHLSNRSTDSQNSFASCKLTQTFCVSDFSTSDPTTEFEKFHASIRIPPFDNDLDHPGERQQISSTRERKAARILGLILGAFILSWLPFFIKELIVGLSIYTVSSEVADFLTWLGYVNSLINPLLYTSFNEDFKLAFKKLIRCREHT
SMILES,inhibition
CC(C)(O)c1cncc(-c2nc3ccc(F)cc3n2C2CC2)c1,-21.9%
Cn1cncc1[C@@](O)(COc1ccc(C#N)cc1-c1ccc(OC(F)(F)F)cc1)c1ccc(C#N)cc1,7.11%
CS(=O)(=O)c1cc(C2(NC(=O)c3cncc4c3cnn4-c3ccc(F)cc3)CC2)ccn1,14.8%
CC(=O)N1CCC(c2ccc(C(=O)NC3=NCCN3)cc2C(F)(F)F)CC1,-19%
CN1CCN(c2cnc3c(C4CCN(C(=O)c5ccc(OC(F)(F)F)cc5N)CC4)ncnc3c2)CC1,14.2%
COc1cc(-c2cn(C3CCc4ccccc4N(CC(F)(F)F)C3=O)nn2)ccc1-n1ccc(C)n1 (stereo not shown),-28.5%
Cc1c(NC(=O)c2cc(C(N)=O)nc3cc(F)ccc23)c(C(F)(F)F)nn1Cc1ccc(C#N)cc1,4%
CO[C@H]1CC[C@H](CNc2ccc(S(=O)(=O)NC(=O)c3ccc(N4CCN(CC5=C(c6ccc(Cl)cc6)CC(C)(C)CC5)CC4)cc3Oc3cnc4[nH]ccc4c3)cc2[N+](=O)[O-])CC1,-1.62%
CCC(=NO)C(C)=Cc1ccc(F)c(C)c1,4.47%
Cc1nc(C2CCN(C(=O)c3ccc(OC(F)(F)F)cc3N)CC2)c2ncc(N3CCN(C)CC3)cc2n1,-9.94%
CN(c1ccnc(CNc2nc(Nc3ccc4c(c3)CC(=O)N4)ncc2C(F)(F)F)n1)S(C)(=O)=O,-26.4%
C[C@@H]1CN(c2cc(-c3n[nH]c4ccc(OC5(C)CC5)cc34)ncn2)C[C@H](C)O1,-7.52%
COCCOc1nc(-c2ccc(Cl)nc2)nc2c1CN(C(=O)c1ncn3ccccc13)CC2,6.95%
O=C1CCc2cc(Nc3cc(OC4CCOCC4)c([N+](=O)[O-])cc3Cl)ccc2N1,16.5%
CC(C)(C)OC(=O)N1CCCC1CNC1CCC(c2cc(F)ccc2F)(S(=O)(=O)c2ccc(Cl)cc2)CC1 (stereo not shown),-12.9%
C[C@H](c1cccc(C#N)c1)n1cc(Cl)cc(C(N)=O)c1=N,34.1%
C[C@H](c1ccc(F)cc1)N(Cc1cccc(C(=O)O)c1)C(=O)c1cnc2ccccc2c1,-18.9%
Cc1cc(Nc2nccc(C)n2)cc(-c2cnc([C@@]3(O)CC[C@H](C(=O)O)C(C)(C)C3)s2)c1,11.4%
Nc1cnc(N2CCc3cc(S(=O)(=O)Nc4c(F)cc(Cl)cc4F)cc(N4CCCC4=O)c32)nc1,-4.55%

# Study 2
# SMILES: COc1cc(C(=O)N2CCC(N3CCN(C)CC3)CC2)ccc1Nc1ncc2c(n1)N(C)c1ccccc1C(=O)N2C
target or system,test,test system,conditions,inhibition
INSR (mouse),"probe labelling, KiNativ ADP probe",mouse brain lysate,"1 µM, LYS1 labelled site",16%
LIMK1 (mouse),"probe labelling, KiNativ ADP probe",mouse brain lysate,"1 µM, LYS1 labelled site",5.4%
human PBMC,"probe labeling, inhibitor, KiNativ profiling, item: APVAIkVFK",cell lysate,"1 µM, LYS1 site, with: ATP acyl-phosphate probe",-0.4%
PRKX and PRKY human,KiNativ profiling,human PBMC,"0.1 µM, LYS1 site, with: ADP acyl phosphate probe",-11.6%
RSK1 domain 1 (mouse),"probe labelling, inhibitor, KiNativ ActivX ADP probe",mouse brain lysate,"0.1 µM, Lys1 site peptide",3.6% and 3.1%
MAP2K1 and MAP2K2 (mouse),"probe labelling, KiNativ, item: DVkPSNILVNSR peptide, LYS2 site",brain tissue lysate (mouse),"0.1 µM, with: ADP acyl-phosphate probe",-5.7%
ACK (mouse),"probe labelling, KiNativ, item: Lys1 site peptide",brain tissue lysate (mouse),"0.1 µM, with: ADP acyl-phosphate probe",3.6%
CSK (mouse),KiNativ ADP probe,mouse brain tissue,"1 µM, probe site LYS1",3.2%
"Protein kinase C zeta type (Prkcz, Mus musculus, UniProt Q02956)","probe labelling, KiNativ, item: Lys1 site peptide",brain tissue lysate (mouse),"0.1 µM, with: ADP acyl-phosphate probe",8.4%
mouse mTOR,"probe labelling, KiNativ ATP probe",mouse brain lysate,"1 µM, ATP site",-4%
STLK5 (mouse),"probe labelling, inhibitor, KiNativ ActivX ATP probe",mouse brain lysate,"1 µM, activation loop peptide",7%
AKT1 and AKT3 mouse,KiNativ profiling,mouse brain lysate,"1 µM, LYS1 site, with: ADP acyl phosphate probe",5.9%
SLK (human),"probe labelling, KiNativ, item: Lys1 site peptide",PBMC lysate (human),"0.1 µM, with: ATP acyl-phosphate probe",5.4%
FES (human),"probe labelling, KiNativ ADP probe",human PBMC lysate,"concentration not given, LYS1 labelled site",-16.8%
mouse FAK,"probe labelling, KiNativ ATP probe",mouse brain lysate,0.1 µM,-4.1%

# Study 3 — effect on: enzyme activity; action: inhibitor; tested at: 0.5 µM; relative to: control
# Target: Serine/threonine-protein kinase D2 (PRKD2, Homo sapiens, UniProt Q9BZL6)
# Chain of UniProt Q9BZL6 (whole entry, looked up): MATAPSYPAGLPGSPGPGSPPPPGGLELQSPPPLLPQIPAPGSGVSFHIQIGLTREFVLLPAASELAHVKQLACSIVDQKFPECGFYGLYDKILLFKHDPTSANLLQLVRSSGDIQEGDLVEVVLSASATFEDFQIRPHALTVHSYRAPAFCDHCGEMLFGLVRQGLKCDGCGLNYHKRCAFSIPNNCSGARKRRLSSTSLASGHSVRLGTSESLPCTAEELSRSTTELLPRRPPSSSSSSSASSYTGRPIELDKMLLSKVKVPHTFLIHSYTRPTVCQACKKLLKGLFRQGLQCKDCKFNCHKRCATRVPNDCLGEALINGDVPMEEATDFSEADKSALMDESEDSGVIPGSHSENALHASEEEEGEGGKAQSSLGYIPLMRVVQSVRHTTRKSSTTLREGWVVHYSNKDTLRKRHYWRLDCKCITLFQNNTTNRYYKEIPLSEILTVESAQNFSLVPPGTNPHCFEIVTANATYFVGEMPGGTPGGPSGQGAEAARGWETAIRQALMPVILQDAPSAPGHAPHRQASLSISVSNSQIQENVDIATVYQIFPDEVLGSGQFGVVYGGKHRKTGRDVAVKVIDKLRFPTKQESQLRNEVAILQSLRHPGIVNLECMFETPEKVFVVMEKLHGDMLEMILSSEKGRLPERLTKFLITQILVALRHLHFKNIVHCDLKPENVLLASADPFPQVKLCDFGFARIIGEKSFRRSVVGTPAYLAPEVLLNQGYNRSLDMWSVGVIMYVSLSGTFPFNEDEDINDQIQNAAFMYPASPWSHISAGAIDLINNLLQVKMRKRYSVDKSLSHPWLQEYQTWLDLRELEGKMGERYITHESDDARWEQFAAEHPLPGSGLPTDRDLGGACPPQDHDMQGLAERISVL
SMILES,remaining activity
N#Cc1cnc2cnc(NCc3cccnc3)cc2c1Nc1ccc(F)c(Cl)c1,99.7%
O=C1Nc2ccccc2/C1=C\c1c(Cl)[nH]c2ccccc12,90.2%
CCCCc1c(-c2ccc(OC)cc2)[nH]c2nccnc12,101%
O=C1Nc2ccc(Br)cc2/C1=C/c1cc2c([nH]1)CCCC2,95.8%
O=C1NC(=O)c2c1c1c3ccccc3[nH]c1n1cncc21,69.4%
CCCNC(=O)Nc1ccc(Oc2ncnc3cc(OC)c(OC)cc23)cc1Cl,94.3%
Oc1cccc(-c2nc(N3CCOCC3)c3oc4ncccc4c3n2)c1,93.8%
Cc1ccc(S(=O)(=O)/C=C/C#N)cc1,98.1%
COc1cccc(-c2cc(=O)c3ccccc3o2)c1N,103%
O=c1cc(N2CCOCC2)oc2c(-c3ccccc3)cccc12,93.8%
COc1ccc2c(c1)c(C1=C(c3c[nH]c4ccccc34)C(=O)NC1=O)cn2CCCN(C)C,92.3%
O=C1Cc2c([nH]c3ccc(Br)cc23)-c2ccccc2N1,100%
c1ccc(-c2n[nH]c3c2oc2ccccc23)cc1,86.9%
O=C(c1cc2cc(O)ccc2[nH]1)c1cc2cc(O)ccc2[nH]1,71.7%
O=Nc1c(-c2c(O)[nH]c3cc(Br)ccc23)[nH]c2ccccc12,94.1%
CN(C)S(=O)(=O)c1ccc2c(c1)/C(=C/c1cc3c([nH]1)CCCC3)C(=O)N2,102%
c1ccc2c(-c3ccncc3)c[nH]c2c1,95.7%
CN1CCN(c2ccc3nc(-c4c(N)c5c(F)cccc5[nH]c4=O)[nH]c3c2)CC1,66.2%
O=C1NC(=O)c2c1c1c3ccccc3[nH]c1c1[nH]c3cc(Br)ccc3c21,45.9%

# Study 4 — tested at: 10 µM
# SMILES: Cc1sc(C(=O)NC2COC2)cc1-n1cc(NC(=O)Nc2c(F)cccc2Cl)cn1
target,test,how to read,remaining activity [%]
"Protein kinase C alpha type (PRKCA, Homo sapiens, UniProt P17252)",enzyme activity,relative to: untreated control,92.5
"Tyrosine-protein kinase receptor TYRO3 (TYRO3, Homo sapiens, UniProt Q06418)",enzyme activity,relative to: untreated control,96.8
"Serine/threonine-protein kinase DCLK1 (DCLK1, Homo sapiens, UniProt O15075)",enzyme activity,relative to: untreated control,66.1
"Dual specificity tyrosine-phosphorylation-regulated kinase 4 (DYRK4, Homo sapiens, UniProt Q9NR20)","enzyme activity, inhibitor",,93.7
"Mitogen-activated protein kinase kinase kinase 9 (MAP3K9, Homo sapiens, UniProt P80192)",enzyme activity,relative to: untreated control,87.1
"Serine/threonine-protein kinase PLK4 (PLK4, Homo sapiens, UniProt O00444)",enzyme activity,relative to: untreated control,99.4
"Lymphokine-activated killer T-cell-originated protein kinase (PBK, Homo sapiens, UniProt Q96KB5)",enzyme activity,relative to: untreated control,86.4
"Testis-specific serine/threonine-protein kinase 3 (TSSK3, Homo sapiens, UniProt Q96PN8)",enzyme activity,relative to: untreated control,99.1
"Cell division cycle 7-related protein kinase, with DBF4 (CDC7, Homo sapiens, UniProt O00311)","kinase activity, kinase panel profiling",,107
"Ribosomal protein S6 kinase alpha-6 (RPS6KA6, Homo sapiens, UniProt Q9UK32)",enzyme activity,relative to: untreated control,115
"Serine/threonine-protein kinase ICK (CILK1, Homo sapiens, UniProt Q9UPZ9)",enzyme activity,relative to: untreated control,100

# A few entries again (study 3):
SMILES,remaining activity
O=C1Nc2ccc(Br)cc2/C1=C/c1cc2c([nH]1)CCCC2,95.8%
O=C1NC(=O)c2c1c1c3ccccc3[nH]c1n1cncc21,69.4%
CCCNC(=O)Nc1ccc(Oc2ncnc3cc(OC)c(OC)cc23)cc1Cl,94.3%
Oc1cccc(-c2nc(N3CCOCC3)c3oc4ncccc4c3n2)c1,93.8%
Cc1ccc(S(=O)(=O)/C=C/C#N)cc1,98.1%
COc1cccc(-c2cc(=O)c3ccccc3o2)c1N,103%
O=c1cc(N2CCOCC2)oc2c(-c3ccccc3)cccc12,93.8%
COc1ccc2c(c1)c(C1=C(c3c[nH]c4ccccc34)C(=O)NC1=O)cn2CCCN(C)C,92.3%
O=C1Cc2c([nH]c3ccc(Br)cc23)-c2ccccc2N1,100%
c1ccc(-c2n[nH]c3c2oc2ccccc23)cc1,86.9%
